Results from different studies.
Each line is one published result; not all experiments were run side by side. ± marks the error that the study gave.
Organism: Salmonella typhimurium

`CNC(=O)c1c(N(C)N=O)ncn1C` — result for “revertant colonies per plate”: 17.3 ± 3 (mutagenicity, Ames plate incorporation; TA98; 2500 µg/plate, without S9, methanol).
Under “fold increase in revertants”, `CC(=O)N1CCC(C(=O)N2CCN3C(=O)c4cc(-c5ccccc5)ccc4NC(=O)C3C2)CC1` (stereo not drawn) is recorded as 1 (TA98; 5000 µg/plate; relative to: vehicle).
For `O=[N+]([O-])c1ccc(N2CCC(NCCC(O)c3ccc(F)c4ccccc34)CC2)c(C(F)(F)F)c1` (stereo not drawn), the induction factor was 0.7 (SOS response, SOS/umu test; TA1535/pSK1002, TGA medium; 0.000244 mg/mL, 4 h, with: 10% rat liver S9; relative to: untreated).
Under “revertant colonies per plate”, `COc1cccc(-c2n[nH]c(SCc3ccccn3)n2)c1OC` is recorded as 11 (Ames test, plate incorporation; TA1537; 0.25 mg/plate, without S9).
With `OC(CCN1CC=C(c2ccc(F)cc2)CC1)c1ccc(F)c2ccccc12` (stereo not drawn) the induction factor was 1.4 (genotoxicity, SOS/umu test; TA1535/pSK1002; 0.008 mg/mL, 4 h, without S9, full range).
`Cc1cc(C(=O)NC(C)(C)COc2cccc3c2C(N)=NS(=O)(=O)N3)cc(C)n1` gave a revertant ratio of 1 (Ames test, confirmatory; TA100; 1000 µg/plate, with: rat liver S9; relative to: solvent control).
For `CC(C)N(N=O)C(C)C`, “revertant colonies per plate” read 39 ± 8 (mutagenicity, Ames plate incorporation; TA98; 500 µg/plate, without S9, methanol).
The viability of `N#C[C@@]1(n2ccc(N)nc2=O)O[C@H](CO)[C@@H](O)[C@H]1O` is reported as 106% (TA1535; 10 µM, without S9).
Under “revertant colonies per plate”, `CN(CC(C)(C)C)N=O` is recorded as 13 ± 4 (mutagenicity, Ames plate incorporation; TA1537; 50 µg/plate, without S9, methanol).
`O=[N+]([O-])c1ccc(N2CCN(CCC(O)c3ccc(F)cc3)CC2)c(C(F)(F)F)c1` (stereo not drawn) gave a survival of 97.8% (SOS/umu test; TA1535/pSK1002; 0.031 mg/mL, 4 h, with S9, lower range).
For `CN(N=O)c1ccc(F)cc1`, “revertant colonies per plate” read 14.7 ± 1 (mutagenicity, Ames plate incorporation; TA1535; 150 µg/plate, 3 d, without S9, methanol).
The induction factor of `O=[N+]([O-])c1ccc(NC2CCNCC2)c(C(F)(F)F)c1` is reported as 0.5 (genotoxicity, SOS/umu test; TA1535/pSK1002; 0.004 mg/mL, 4 h, without S9, full range).

For quick reference, copied from above:
For `O=[N+]([O-])c1ccc(N2CCC(NCCC(O)c3ccc(F)c4ccccc34)CC2)c(C(F)(F)F)c1` (stereo not drawn), the induction factor was 0.7 (SOS response, SOS/umu test; TA1535/pSK1002, TGA medium; 0.000244 mg/mL, 4 h, with: 10% rat liver S9; relative to: untreated).
